Published values gathered from unrelated publications.
Each line is one published result; not all experiments were run side by side. Numbers after ± are the reported error.

| SMILES | technique | matrix | tested at | pH | temperature | setting | logD |
| --- | --- | --- | --- | --- | --- | --- | --- |
| Brc1cccc([C@H]2COC[C@H](C3CCCCC3)N2)c1 | shake-flask, 1-octanol/buffer |  |  | pH 7.4 |  |  | > 4.7 |
| COc1ccc([C@@H]2Sc3ccccc3N(CCN(C)C)C(=O)[C@@H]2OC(C)=O)cc1 |  |  |  | pH 7.4 |  |  | 2.09 |
| COc1cc(OC)c(NC(=O)CSc2nnc(-c3ccccc3)n2C)cc1Cl |  | octanol/buffer |  | pH 7.4 |  |  | 2.95 |
| O=C(O)CNC(=O)c1c(O)cc(CCc2ccccc2)n2ncnc12 | miniaturised shake-flask | 1-octanol/water |  |  |  |  | 0 |
| COc1cc2[nH]c(C)c(-c3ccccc3)c(=O)c2cc1Cl | chromatographic |  |  | pH 7.4 |  |  | 1.7 |
| CC(=O)/C=C/C(=O)NNC(=O)CCc1ccccc1C(=O)N[C@H](C)c1cccc2ccccc12 |  |  |  |  |  |  | 3.3 |
| Cc1nnc(C(=O)NC(C)(C)c2nc(C(=O)NCc3ccc(F)cc3)c(O)c(=O)n2C)o1 | miniaturised shake-flask | 1-octanol/water |  |  |  |  | 1 |
| CCOC(=O)N1C[C@@H](c2cnn(C)c2)N[C@@H](c2ccc(-c3ccccc3)cc2)C1 | shake-flask, 1-octanol/buffer |  |  | pH 7.4 |  |  | > 4.7 |
| O=C1CCC(N2C(=O)c3cccc(NCC(=O)OCCCCc4cn(CCCCCCN5CCc6c(c7ccccc7n6Cc6ccc(C(=O)NO)cc6)C5)nn4)c3C2=O)C(=O)N1 (stereo not drawn) | HPLC-based method |  |  | pH 7.4 |  |  | 2.3 |
| O=C(O)c1cc(-c2ccc(-c3cc[nH]n3)cc2)c2ccc(-c3ccc(C(F)(F)F)cc3)cc2c1 | HPLC retention |  |  | pH 7.4 |  | chromatographic logD | 0.65 ± 0.01 |
| C[C@@H](NC(=O)c1ccccc1CCC(=O)NNC(=O)/C=C/C(=O)OCC1CCCC1)c1cccc2ccccc12 |  |  |  |  |  |  | 4.7 |
| COc1cccc(CCc2cc(O)c(=O)[nH]n2)c1 | shake-flask |  |  | pH 7.4 |  |  | 0.3 ± 0.001 |
| COC(=O)c1ccccc1NC(=O)CSc1nnc(-c2ccc(OC)cc2)n1C |  | octanol/buffer |  | pH 7.4 |  |  | 2.75 |
| CCOC(=O)N1C[C@@H](c2ccccc2O)N[C@@H](c2ccc(-c3ccccc3)cc2)C1 | shake-flask, 1-octanol/buffer |  |  | pH 7.4 |  |  | > 4.7 |
| CCOc1ccc2nc(SCC(=O)Nc3c(C)n(C)n(-c4ccccc4)c3=O)sc2c1 |  | octanol/buffer |  | pH 7.4 |  |  | 2.53 |
| COc1cc2[nH]c(C)c(-c3ccc(CO)cc3)c(=O)c2cc1Cl | chromatographic |  |  | pH 7.4 |  |  | 1.8 |
| Cc1ccc(Oc2ccc(NC(=O)CNc3ccccc3N3CCCC3=O)cc2)cc1 | shake-flask |  |  |  |  |  | 4.3 |
| COc1cc2[nH]c(C)c(-c3ccc(F)cc3)c(=O)c2cc1Cl | chromatographic |  |  | pH 7.4 |  |  | 2.6 |
| Cc1nc(C)c(-c2ccnc(Nc3ccc(N(C)C)c([N+](=O)[O-])c3)n2)s1 |  | octanol/buffer | 67 µM | pH 7.4 |  |  | 4.42 |
| COc1cc2[nH]c(C)c(-c3ccc(OC)c(F)c3F)c(=O)c2cc1Cl | chromatographic |  |  | pH 7.4 |  |  | 2.7 |
| O=[N+]([O-])c1ccc(Nc2ncnc3ccc(-c4cccc(N5CCOCC5)c4)cc23)cc1C(F)(F)F | shake flask | 1-octanol/phosphate buffer |  | pH 7.4 |  |  | > 3.4 |
| COc1ccc2nc(-c3cc(N(C)C)ccn3)c(Nc3ccc(F)cc3)n2c1 |  |  |  | pH 7.4 |  |  | 3.1 |
| CCOC(=O)N1C[C@@H](C2CCCCC2)N[C@@H](c2cccc(OC)c2)C1 | shake-flask, 1-octanol/buffer |  |  | pH 7.4 |  |  | > 4.7 |
| CN1CCN(c2cccc(-c3ccc4ncnc(Nc5ccc(Cl)c(C(F)(F)F)c5)c4c3)c2)CC1 | shake flask | 1-octanol/phosphate buffer |  | pH 7.4 |  |  | > 4.3 |
| Cn1c(Cc2ccccc2)nnc1Sc1ccc([N+](=O)[O-])cc1C(=O)N1CCOCC1 |  | octanol/buffer |  | pH 7.4 |  |  | 1.45 |
| Cc1ccc(C(C)(C)c2ccc(NC(=O)CN(C)c3ccccc3N3CCCC3=O)cc2)cc1 | shake-flask |  |  |  |  |  | 5.1 |

| SMILES | technique | matrix | tested at | pH | temperature | setting | logD |
| --- | --- | --- | --- | --- | --- | --- | --- |
| CCOC(=O)N1C[C@@H](c2ccc(-c3ccccc3)cc2)N[C@@H](C(CC)CC)C1 | shake-flask, 1-octanol/buffer |  |  | pH 7.4 |  |  | > 4.7 |
| Cc1cc(Nc2ccc(S(F)(F)(F)(F)F)cc2)n2ccnc2n1 |  |  |  |  |  |  | 3.3 |
| O=C(CSc1nnc(-c2ccccc2O)n1-c1ccccc1)Nc1cccc(C(=O)O)c1 |  | octanol/buffer |  | pH 7.4 |  |  | 0.2 |
| CN(c1ccc(F)cc1)c1c(-c2cccc(F)n2)nc2ccccn12 |  |  |  | pH 7.4 |  |  | 4 |
| Cn1nccc1-c1ccc(-c2cc(C(=O)O)cc3cc(-c4ccc(C(F)(F)F)cc4)ccc23)cc1 | HPLC retention |  |  | pH 7.4 |  | chromatographic logD | 1 |
| COC(=O)CNC(=O)c1nc(Cl)c2ccccc2c1O | miniaturised shake-flask | 1-octanol/water |  |  |  |  | 2.4 |
| CC(C)C[C@@H](NC(=O)[C@H](C)NC(=O)CNC(=O)[C@@H](NC=O)C(C)C)C(=O)N[C@@H](C)C(=O)N[C@@H](C(=O)N[C@H](C(=O)N[C@@H](C(=O)N[C@@H](Cc1c[nH]c2ccccc12)C(=O)N[C@H](CC(C)C)C(=O)N[C@@H](Cc1c[nH]c2ccccc12)C(=O)N[C@H](CC(C)C)C(=O)N[C@@H](Cc1c[nH]c2ccccc12)C(=O)N[C@H](CC(C)C)C(=O)N[C@@H](Cc1c[nH]c2ccccc12)C(=O)NCCO)C(C)C)C(C)C)C(C)C | UHPLC retention on C18 |  |  |  |  |  | 5.37 |
| C[C@@H](NC(=O)c1ccccc1CCC(=O)NNC(=O)/C=C/C(=O)OC1CCC1)c1cccc2ccccc12 |  |  |  |  |  |  | 3.9 |
| CC(C)(C)c1ccc([C@H]2COC[C@@H](c3ccc(Cl)cc3)N2)cc1 | shake-flask, 1-octanol/buffer |  |  | pH 7.4 |  |  | > 4.7 |
| COc1cc(OC)c(NC(=O)CSc2nnc(-c3ccncc3)n2C)cc1Cl |  | octanol/buffer |  | pH 7.4 |  |  | 1.78 |
| COc1cc2[nH]c(C)c(-c3ccc(Oc4ccccc4)cc3)c(=O)c2cc1Cl | chromatographic |  |  | pH 7.4 |  |  | 3.7 |
| CN1C(C(=O)Nc2ccc(F)cn2)=C(O)c2ccccc2S1(=O)=O | miniaturised shake-flask | 1-octanol/water |  |  |  |  | 0.3 |
| Cc1cccc(NS(=O)(=O)c2cc(C(=O)Nc3ccccc3C(=O)N3CCOCC3)ccc2Cl)c1 |  | octanol/buffer |  | pH 7.4 |  |  | 2.92 |
| N#Cc1ccc([C@@H]2COC[C@H](c3cc(Cl)cc(Cl)c3)N2)cc1 | shake-flask, 1-octanol/buffer |  |  | pH 7.4 |  |  | > 4.7 |
| COC(=O)/C=C/C(=O)NNC(=O)CCc1ccccc1C(=O)N[C@H](C)c1cccc(-c2cc3ccccc3o2)c1 |  |  |  |  |  |  | 4 |
| O=C(Nc1ccc(F)cc1)N1CCNCC1COc1ccc2c(c1)OCO2 (stereo not drawn) | experimental partition |  |  | pH 7.4 |  |  | 1.88 ± 0.01 |
| COC(=O)C(C)n1nc(Cn2cc3cc(OCCF)c(Cl)cc3n2)c2ccccc2c1=O (racemic) |  |  |  | pH 7.4 | room temperature |  | 2.75 ± 0.1 |
| CCOC(=O)N1C[C@@H](c2cc(Cl)cc(Cl)c2)N[C@@H](c2nc3ccccc3n2C)C1 | shake-flask, 1-octanol/buffer |  |  | pH 7.4 |  |  | > 4.7 |
| COc1cc2[nH]c(C)c(-c3ccc(C)cc3C)c(=O)c2cc1Cl | chromatographic |  |  | pH 7.4 |  |  | 3 |
| CCOC(=O)CNC(=O)c1ncccc1O | miniaturised shake-flask | 1-octanol/water |  |  |  |  | 0.2 |
| CCc1c(C)[nH]c2cc(OC)c(Cl)cc2c1=O | chromatographic |  |  | pH 7.4 |  |  | 2.4 |
| COc1ccnc(C(=O)NC2CCCCC2)c1O | miniaturised shake-flask | 1-octanol/water |  |  |  |  | 1.6 |
| O=c1[nH]c(=S)n(C[C@H]2CCCO2)c2nc[nH]c12 |  |  |  |  |  |  | 0.4 |
| O=C(O)c1cccnc1Nc1cccc(C(F)(F)F)c1 | miniaturised shake-flask | 1-octanol/water |  |  |  |  | 2.1 |
| COc1cc2[nH]c(C)c(-c3ccc4c(c3)OCCO4)c(=O)c2cc1Cl | chromatographic |  |  | pH 7.4 |  |  | 2.4 |

Repeated from above:
| SMILES | technique | matrix | tested at | pH | temperature | setting | logD |
| --- | --- | --- | --- | --- | --- | --- | --- |
| Cc1nnc(C(=O)NC(C)(C)c2nc(C(=O)NCc3ccc(F)cc3)c(O)c(=O)n2C)o1 | miniaturised shake-flask | 1-octanol/water |  |  |  |  | 1 |
| CCOC(=O)N1C[C@@H](c2cnn(C)c2)N[C@@H](c2ccc(-c3ccccc3)cc2)C1 | shake-flask, 1-octanol/buffer |  |  | pH 7.4 |  |  | > 4.7 |
| O=C1CCC(N2C(=O)c3cccc(NCC(=O)OCCCCc4cn(CCCCCCN5CCc6c(c7ccccc7n6Cc6ccc(C(=O)NO)cc6)C5)nn4)c3C2=O)C(=O)N1 (stereo not drawn) | HPLC-based method |  |  | pH 7.4 |  |  | 2.3 |
| O=C(O)c1cc(-c2ccc(-c3cc[nH]n3)cc2)c2ccc(-c3ccc(C(F)(F)F)cc3)cc2c1 | HPLC retention |  |  | pH 7.4 |  | chromatographic logD | 0.65 ± 0.01 |
| C[C@@H](NC(=O)c1ccccc1CCC(=O)NNC(=O)/C=C/C(=O)OCC1CCCC1)c1cccc2ccccc12 |  |  |  |  |  |  | 4.7 |
| COc1cccc(CCc2cc(O)c(=O)[nH]n2)c1 | shake-flask |  |  | pH 7.4 |  |  | 0.3 ± 0.001 |
